Published values pooled from the literature.
Each numbered part is a random draw from the data of one study; scales do not carry over between parts. Values joined by “and” are separate records of one study, mostly repeats; a detail may differ.
Sequence of UniProt P49841 (whole entry, looked up): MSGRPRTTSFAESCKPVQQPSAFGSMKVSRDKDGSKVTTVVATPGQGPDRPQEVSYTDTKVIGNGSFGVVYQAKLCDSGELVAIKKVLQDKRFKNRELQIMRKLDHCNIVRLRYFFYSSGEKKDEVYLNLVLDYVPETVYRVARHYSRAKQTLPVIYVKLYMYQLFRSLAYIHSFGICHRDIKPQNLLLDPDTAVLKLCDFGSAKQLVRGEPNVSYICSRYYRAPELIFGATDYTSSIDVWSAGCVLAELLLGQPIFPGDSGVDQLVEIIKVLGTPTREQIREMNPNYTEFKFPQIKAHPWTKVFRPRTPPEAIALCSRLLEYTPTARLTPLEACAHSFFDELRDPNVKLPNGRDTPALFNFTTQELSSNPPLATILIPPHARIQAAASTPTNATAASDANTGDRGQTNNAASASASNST
Sequence of UniProt O43353 (whole entry, looked up): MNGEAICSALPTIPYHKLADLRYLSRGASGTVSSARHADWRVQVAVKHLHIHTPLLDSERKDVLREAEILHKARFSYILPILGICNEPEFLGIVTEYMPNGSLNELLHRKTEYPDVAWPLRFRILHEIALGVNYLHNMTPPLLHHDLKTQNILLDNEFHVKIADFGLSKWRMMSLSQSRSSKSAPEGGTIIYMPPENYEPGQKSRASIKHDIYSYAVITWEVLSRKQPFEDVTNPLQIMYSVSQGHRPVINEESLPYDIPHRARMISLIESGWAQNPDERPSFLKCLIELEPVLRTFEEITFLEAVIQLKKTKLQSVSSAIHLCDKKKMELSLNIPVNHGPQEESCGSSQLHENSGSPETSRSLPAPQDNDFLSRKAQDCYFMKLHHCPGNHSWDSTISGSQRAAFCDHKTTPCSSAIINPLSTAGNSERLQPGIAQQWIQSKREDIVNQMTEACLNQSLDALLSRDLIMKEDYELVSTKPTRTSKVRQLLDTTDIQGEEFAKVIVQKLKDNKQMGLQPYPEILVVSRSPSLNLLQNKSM
Sequence of UniProt O94804 (whole entry, looked up): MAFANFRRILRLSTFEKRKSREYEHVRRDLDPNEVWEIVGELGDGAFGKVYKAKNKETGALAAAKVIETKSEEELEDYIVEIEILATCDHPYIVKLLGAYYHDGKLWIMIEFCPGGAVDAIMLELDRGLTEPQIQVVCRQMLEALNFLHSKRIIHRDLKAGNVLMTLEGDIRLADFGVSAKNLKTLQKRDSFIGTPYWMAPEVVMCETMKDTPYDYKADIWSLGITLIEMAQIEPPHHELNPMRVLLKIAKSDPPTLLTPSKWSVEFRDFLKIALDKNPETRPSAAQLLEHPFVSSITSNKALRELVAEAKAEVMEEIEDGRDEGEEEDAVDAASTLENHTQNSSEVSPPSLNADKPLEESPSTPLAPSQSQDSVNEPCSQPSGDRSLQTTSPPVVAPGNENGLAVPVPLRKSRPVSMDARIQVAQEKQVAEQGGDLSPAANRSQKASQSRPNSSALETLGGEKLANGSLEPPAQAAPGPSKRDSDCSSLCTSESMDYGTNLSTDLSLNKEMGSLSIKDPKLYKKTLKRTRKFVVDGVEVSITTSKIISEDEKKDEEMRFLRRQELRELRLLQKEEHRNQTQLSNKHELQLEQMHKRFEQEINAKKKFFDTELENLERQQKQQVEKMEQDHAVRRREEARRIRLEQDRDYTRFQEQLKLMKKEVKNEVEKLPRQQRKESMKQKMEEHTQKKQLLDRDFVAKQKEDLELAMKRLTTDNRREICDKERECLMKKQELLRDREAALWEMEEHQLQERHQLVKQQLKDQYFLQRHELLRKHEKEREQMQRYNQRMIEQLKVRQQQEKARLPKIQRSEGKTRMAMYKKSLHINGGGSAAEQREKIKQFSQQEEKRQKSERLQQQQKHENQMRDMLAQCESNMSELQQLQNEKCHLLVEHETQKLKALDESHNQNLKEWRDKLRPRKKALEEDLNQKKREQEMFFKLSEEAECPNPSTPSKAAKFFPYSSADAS
Sequence of UniProt P07948 (whole entry, looked up): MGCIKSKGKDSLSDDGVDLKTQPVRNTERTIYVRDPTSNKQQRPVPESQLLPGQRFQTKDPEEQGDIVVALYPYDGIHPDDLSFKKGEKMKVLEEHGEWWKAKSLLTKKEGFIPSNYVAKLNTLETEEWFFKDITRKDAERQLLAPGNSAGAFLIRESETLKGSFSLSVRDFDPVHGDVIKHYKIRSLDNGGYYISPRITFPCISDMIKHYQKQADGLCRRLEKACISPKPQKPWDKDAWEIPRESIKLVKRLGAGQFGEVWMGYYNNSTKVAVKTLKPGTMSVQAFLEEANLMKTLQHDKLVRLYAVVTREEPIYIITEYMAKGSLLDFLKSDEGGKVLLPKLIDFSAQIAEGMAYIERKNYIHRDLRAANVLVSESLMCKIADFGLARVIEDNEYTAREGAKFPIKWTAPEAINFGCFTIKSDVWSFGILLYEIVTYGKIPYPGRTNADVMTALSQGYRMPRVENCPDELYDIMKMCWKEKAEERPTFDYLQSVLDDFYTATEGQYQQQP
Sequence of UniProt O96017 (whole entry, looked up): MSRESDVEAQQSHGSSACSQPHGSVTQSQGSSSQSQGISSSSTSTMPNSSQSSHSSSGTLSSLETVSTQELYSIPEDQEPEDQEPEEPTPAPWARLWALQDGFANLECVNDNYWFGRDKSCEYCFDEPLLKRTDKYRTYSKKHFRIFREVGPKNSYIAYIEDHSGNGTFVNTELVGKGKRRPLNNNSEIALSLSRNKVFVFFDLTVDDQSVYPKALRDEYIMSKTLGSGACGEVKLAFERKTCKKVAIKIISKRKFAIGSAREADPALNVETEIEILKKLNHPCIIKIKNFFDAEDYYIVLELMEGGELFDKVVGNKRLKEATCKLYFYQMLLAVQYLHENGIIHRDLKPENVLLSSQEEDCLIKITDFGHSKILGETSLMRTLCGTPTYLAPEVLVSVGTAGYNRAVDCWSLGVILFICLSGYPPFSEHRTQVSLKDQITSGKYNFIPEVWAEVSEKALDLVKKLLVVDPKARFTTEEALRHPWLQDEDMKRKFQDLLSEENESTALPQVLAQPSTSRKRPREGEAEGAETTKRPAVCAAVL
Sequence of UniProt P50750 (whole entry, looked up): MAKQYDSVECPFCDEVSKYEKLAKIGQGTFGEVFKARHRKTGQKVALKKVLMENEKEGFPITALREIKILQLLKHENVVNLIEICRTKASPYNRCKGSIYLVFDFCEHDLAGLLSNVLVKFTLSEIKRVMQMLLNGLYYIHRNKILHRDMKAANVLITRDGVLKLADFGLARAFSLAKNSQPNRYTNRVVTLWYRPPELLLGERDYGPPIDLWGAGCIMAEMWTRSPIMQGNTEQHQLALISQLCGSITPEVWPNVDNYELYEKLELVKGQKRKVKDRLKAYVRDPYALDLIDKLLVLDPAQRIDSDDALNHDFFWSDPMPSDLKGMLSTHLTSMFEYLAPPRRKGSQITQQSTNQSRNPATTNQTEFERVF
Sequence of UniProt P28482 (whole entry, looked up): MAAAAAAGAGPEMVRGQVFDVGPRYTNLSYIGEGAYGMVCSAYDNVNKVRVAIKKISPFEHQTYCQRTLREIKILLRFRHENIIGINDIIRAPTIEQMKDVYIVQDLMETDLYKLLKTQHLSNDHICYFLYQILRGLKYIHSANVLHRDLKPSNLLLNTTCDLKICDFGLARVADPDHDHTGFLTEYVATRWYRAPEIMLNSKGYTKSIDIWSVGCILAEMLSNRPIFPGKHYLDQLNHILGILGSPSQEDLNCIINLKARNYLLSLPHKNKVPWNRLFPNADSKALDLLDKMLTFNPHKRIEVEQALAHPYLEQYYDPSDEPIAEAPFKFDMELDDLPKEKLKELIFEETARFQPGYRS

Study 1 — cell line: NCI-H292; technique: CellTiter-Glo; time: 72 h
Structure (SMILES): N#C/C=C/CNCCCCN1c2ccccc2CCc2ccc(Cl)cc21.O=C(O)/C=C\C(=O)O
tested at	viability
0.5 µM	105% and 104% and 102%
50 µM	0.106% and -0.00477% and 0.0273%
5 µM	62.4% and 53.6% and 54%
0.05 µM	105% and 107%
0.005 µM	106% and 103% and 104%

Study 2 — read-out: enzyme activity
Compound: NC/C(=C\F)COc1ccc(Cl)c(-c2cc(=O)[nH]c(=S)n2CC(N)=O)c1
Target: Myeloperoxidase (MPO, Homo sapiens, UniProt P05164)
Sequence of UniProt P05164 (whole entry, looked up): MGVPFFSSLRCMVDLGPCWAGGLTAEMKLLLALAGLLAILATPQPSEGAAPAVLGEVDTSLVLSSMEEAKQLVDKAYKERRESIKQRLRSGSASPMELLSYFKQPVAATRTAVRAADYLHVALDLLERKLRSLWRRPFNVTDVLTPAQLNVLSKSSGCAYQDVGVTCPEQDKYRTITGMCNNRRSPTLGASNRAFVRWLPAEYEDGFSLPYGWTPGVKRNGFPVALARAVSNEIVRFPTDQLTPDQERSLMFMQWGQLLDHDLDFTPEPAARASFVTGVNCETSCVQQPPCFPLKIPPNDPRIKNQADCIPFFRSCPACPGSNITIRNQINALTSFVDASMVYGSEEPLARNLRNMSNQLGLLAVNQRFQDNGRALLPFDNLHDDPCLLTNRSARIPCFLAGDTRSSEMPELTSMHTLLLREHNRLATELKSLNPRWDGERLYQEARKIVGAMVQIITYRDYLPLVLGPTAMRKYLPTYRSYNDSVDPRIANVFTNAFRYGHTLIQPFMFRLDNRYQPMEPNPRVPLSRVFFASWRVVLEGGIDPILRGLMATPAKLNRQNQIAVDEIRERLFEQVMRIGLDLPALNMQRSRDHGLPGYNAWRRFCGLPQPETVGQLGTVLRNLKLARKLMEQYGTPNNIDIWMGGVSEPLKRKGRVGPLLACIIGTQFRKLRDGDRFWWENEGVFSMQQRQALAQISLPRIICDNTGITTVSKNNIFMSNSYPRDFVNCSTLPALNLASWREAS
mode	technique	tested at	inhibition
inhibitor	fluorescence	4.6 nM	-11.5%
inhibitor	fluorescence	300 pM	-6.26%
		30 µM	98.2%
inhibitor	fluorescence	1.5 nM	-15.9% and -11.8%
inhibitor	fluorescence	200 pM	-25.5%
inhibitor	fluorescence	6.9 nM	4.73%
inhibitor	fluorescence	20.6 nM	10.3%
inhibitor	fluorescence	13.7 nM	-5.36% and -0.652%

Study 3
SMILES: CNc1ncc2cc(-c3cc(OC)cc(OC)c3Cl)c(=O)n(CCc3ccc(NC(=O)C(C#N)=CC(C)(C)N4CCOCC4)cc3)c2n1
target	read-out	tested at	setting	inhibition [%]
RIPK2 (Homo sapiens, UniProt O43353)	kinase activity	0.1 µM		-2
GSK3B (Homo sapiens, UniProt P49841)	kinase activity	1 µM		-13
Insulin receptor (INSR, Homo sapiens, UniProt P06213)	kinase activity	1 µM		6
PRKCH (Homo sapiens, UniProt P24723)	kinase activity	0.1 µM		-7
MAPK1 (Homo sapiens, UniProt P28482)	kinase activity	1 µM		-1
NDRG1		0.1 µM	mean	-4
SIK2 (Homo sapiens, UniProt Q9H0K1)	kinase activity	0.1 µM		-2
CHEK2 (Homo sapiens, UniProt O96017)	kinase activity	1 µM		0
HIPK4 (Homo sapiens, UniProt Q8NE63)	kinase activity	0.1 µM		-5
Tyrosine-protein kinase Lyn, isoform B (LYN, Homo sapiens, UniProt P07948)	kinase activity	0.1 µM		1
Cyclin-dependent kinase 9, with cyclin T1 (CDK9, Homo sapiens, UniProt P50750)	kinase activity	0.1 µM		3
ERBB2 (Homo sapiens, UniProt P04626)	kinase activity	0.1 µM		7
ROS1 (Homo sapiens, UniProt P08922)	kinase activity	0.1 µM		-1
STK10 (Homo sapiens, UniProt O94804)	kinase activity	0.1 µM		-3

Single results of other studies
PKMYT1: Membrane-associated tyrosine- and threonine-specific cdc2-inhibitory kinase (PKMYT1, Homo sapiens, UniProt Q99640)
Sequence of UniProt Q99640 (whole entry, looked up): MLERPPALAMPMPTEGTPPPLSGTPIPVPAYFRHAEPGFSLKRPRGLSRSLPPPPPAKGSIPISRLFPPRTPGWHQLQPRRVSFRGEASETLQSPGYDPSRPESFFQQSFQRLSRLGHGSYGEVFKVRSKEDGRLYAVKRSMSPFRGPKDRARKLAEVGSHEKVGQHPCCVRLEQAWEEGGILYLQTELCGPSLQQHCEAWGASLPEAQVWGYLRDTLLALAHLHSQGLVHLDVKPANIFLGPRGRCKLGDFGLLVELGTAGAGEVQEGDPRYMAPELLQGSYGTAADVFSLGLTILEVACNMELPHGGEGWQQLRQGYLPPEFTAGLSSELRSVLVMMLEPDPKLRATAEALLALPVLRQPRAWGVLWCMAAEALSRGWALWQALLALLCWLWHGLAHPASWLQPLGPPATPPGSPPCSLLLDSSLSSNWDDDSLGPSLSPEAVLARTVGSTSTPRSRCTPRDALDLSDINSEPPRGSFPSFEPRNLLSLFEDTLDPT
Structure (SMILES)	target or system	test	system	conditions	how to read	endpoint	result
Cc1ccc(O)c(C)c1-c1cnc2[nH]c(-c3cnc(N4CCC5(CC4)CC(N4CCN(c6ccc(NC7CCC(=O)NC7=O)cc6F)CC4)CO5)nc3)cc2c1C#N (stereo not shown)			female CD-1 mouse, plasma	oral, 20 mg/kg		bioavailability	53.4%
Cc1ccc(O)c(C)c1-c1cnc2[nH]c(-c3cnc(N4CCC(CN5CCN(c6ccc7c(c6)C(=O)N(C6CCC(=O)NC6=O)C7=O)CC5)CC4)nc3)cc2c1C#N (stereo not shown)	PKMYT1	immunoblotting	HCC1569	1 µM, 2 h		remaining protein level	33%
Cc1ccc(O)c(C)c1-c1cnc2[nH]c(-c3cnc(N4CCC(CN5CCN(c6ccc7c(c6F)CN(C6CCC(=O)NC6=O)C7=O)CC5)CC4)nc3)cc2c1C#N (stereo not shown)			CD-1 mouse	oral, 20 mg/kg, 24 h		plasma concentration	not detected
Cc1ccc(O)c(C)c1-c1cnc2[nH]c(-c3cnc(N4CCC(CCN5CCN(c6cc7c(cc6F)c(N6CCC(=O)NC6=O)nn7C)CC5)CC4)nc3)cc2c1C#N	PKMYT1	degrader, automated immunoblot (Jess)		100 nM	baseline: GAPDH	protein level	24%

Excerpt of the above (study 1):
tested at	viability
50 µM	0.106% and -0.00477% and 0.0273%
5 µM	62.4% and 53.6% and 54%
0.05 µM	105% and 107%
